Measurements from different studies.
Target: Beta-1 adrenergic receptor (ADRB1, Homo sapiens, UniProt P08588)
Sequence of UniProt P08588 (whole entry, looked up): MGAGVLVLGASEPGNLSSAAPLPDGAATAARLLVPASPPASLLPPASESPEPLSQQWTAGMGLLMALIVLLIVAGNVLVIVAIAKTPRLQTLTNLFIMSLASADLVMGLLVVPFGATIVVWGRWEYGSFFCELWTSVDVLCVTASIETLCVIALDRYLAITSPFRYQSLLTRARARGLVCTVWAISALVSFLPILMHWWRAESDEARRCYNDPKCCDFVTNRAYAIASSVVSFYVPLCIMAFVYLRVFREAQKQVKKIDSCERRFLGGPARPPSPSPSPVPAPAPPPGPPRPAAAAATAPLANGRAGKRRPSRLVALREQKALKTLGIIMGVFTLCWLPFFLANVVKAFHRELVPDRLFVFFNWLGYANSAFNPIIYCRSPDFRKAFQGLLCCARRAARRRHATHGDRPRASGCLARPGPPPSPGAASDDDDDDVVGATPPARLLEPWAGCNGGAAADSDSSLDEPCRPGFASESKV

| Structure (SMILES) | observed | action | method | cell line | tested at | inhibition |
| --- | --- | --- | --- | --- | --- | --- |
| O=C1c2sc(-c3ccc(N4CCC(F)C4)nc3F)nc2CCN1c1cccnc1 (centres unmarked) | ligand displacement | – | radioligand | – | 1 µM | 2% |
| CO[C@@H](C)c1c(NC(=O)Nc2cnc(-n3nccn3)c(C(F)(F)F)c2)cnc2sc(C)nc12 | ligand displacement | – | radioligand | – | 10 µM | 3.8% |
| COc1ccc(C(=O)Nc2c(-c3cccs3)nc3ccccn23)cc1 | ligand displacement | – | radioligand | – | 10 µM | < 50% |
| CC(C)Cn1c(SCC(=O)N2CCc3ccccc3C2)nc2cc(Cl)ccc2c1=O | ligand displacement | – | radioligand | – | 10 µM | 1% |
| CCC(=O)N(C)c1ccc(Cl)c(Cl)c1 | ligand displacement | – | radioligand | – | 10 µM | < 10% |
| CNC(=O)C[C@H](Cc1ccc(C#N)cc1)NC(=O)c1cc(-c2ccc(CN[C@H](C)c3ccc(C)cc3)o2)ccc1Cl | agonist response | antagonist | – | 1 | 10 µM | -23% |
| Cn1ccc2cc(-n3c(=O)[nH]c4sc5c(c4c3=O)CCCC5)ccc21 | cell-free assay | – | radioligand | – | 10 µM | -7% |
| COc1ccc(C#CC2=C[C@H]3C[C@@]4(OC(=O)C=C24)[C@H]2CC[C@H](C(OC)OC)N32)cc1 | ligand displacement | – | radioligand | – | 10 µM | 5% |
| COCC(=O)N1CCc2cc(-c3csc(NC(=O)c4cc(OC)cc(OC)c4)n3)ccc21 | cell-free assay | – | – | – | 10 µM | 2% |
| C[Si](C)(C)C[C@@H](CN)CC(=O)O | cell-free assay | inhibitor | – | – | 75 µM | -8% |
| Cc1[nH]nc2c1N=C(c1ccccc1Cl)c1cnc(N3CCOCC3)cc1N2 | cell-free assay | – | – | – | 10 µM | 8% |

A few entries again:
| Structure (SMILES) | observed | action | method | cell line | tested at | inhibition |
| --- | --- | --- | --- | --- | --- | --- |
| C[Si](C)(C)C[C@@H](CN)CC(=O)O | cell-free assay | inhibitor | – | – | 75 µM | -8% |
